Experimental data gathered from unrelated publications.
Lines come from different studies, so protocols differ. Several values in a cell are separate wells, animals, samples, runs or records. ± gives the spread as reported.
T1: ssDNA, aptamer; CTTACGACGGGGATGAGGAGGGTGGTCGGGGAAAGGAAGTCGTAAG
UniProt Q16774, sequence (whole entry, looked up): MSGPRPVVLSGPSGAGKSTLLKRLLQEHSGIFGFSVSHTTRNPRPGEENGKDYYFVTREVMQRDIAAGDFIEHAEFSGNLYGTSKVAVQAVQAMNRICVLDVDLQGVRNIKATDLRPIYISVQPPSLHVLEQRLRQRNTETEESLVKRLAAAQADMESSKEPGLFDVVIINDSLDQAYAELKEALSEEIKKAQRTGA
UniProt P11388, sequence (whole entry, looked up): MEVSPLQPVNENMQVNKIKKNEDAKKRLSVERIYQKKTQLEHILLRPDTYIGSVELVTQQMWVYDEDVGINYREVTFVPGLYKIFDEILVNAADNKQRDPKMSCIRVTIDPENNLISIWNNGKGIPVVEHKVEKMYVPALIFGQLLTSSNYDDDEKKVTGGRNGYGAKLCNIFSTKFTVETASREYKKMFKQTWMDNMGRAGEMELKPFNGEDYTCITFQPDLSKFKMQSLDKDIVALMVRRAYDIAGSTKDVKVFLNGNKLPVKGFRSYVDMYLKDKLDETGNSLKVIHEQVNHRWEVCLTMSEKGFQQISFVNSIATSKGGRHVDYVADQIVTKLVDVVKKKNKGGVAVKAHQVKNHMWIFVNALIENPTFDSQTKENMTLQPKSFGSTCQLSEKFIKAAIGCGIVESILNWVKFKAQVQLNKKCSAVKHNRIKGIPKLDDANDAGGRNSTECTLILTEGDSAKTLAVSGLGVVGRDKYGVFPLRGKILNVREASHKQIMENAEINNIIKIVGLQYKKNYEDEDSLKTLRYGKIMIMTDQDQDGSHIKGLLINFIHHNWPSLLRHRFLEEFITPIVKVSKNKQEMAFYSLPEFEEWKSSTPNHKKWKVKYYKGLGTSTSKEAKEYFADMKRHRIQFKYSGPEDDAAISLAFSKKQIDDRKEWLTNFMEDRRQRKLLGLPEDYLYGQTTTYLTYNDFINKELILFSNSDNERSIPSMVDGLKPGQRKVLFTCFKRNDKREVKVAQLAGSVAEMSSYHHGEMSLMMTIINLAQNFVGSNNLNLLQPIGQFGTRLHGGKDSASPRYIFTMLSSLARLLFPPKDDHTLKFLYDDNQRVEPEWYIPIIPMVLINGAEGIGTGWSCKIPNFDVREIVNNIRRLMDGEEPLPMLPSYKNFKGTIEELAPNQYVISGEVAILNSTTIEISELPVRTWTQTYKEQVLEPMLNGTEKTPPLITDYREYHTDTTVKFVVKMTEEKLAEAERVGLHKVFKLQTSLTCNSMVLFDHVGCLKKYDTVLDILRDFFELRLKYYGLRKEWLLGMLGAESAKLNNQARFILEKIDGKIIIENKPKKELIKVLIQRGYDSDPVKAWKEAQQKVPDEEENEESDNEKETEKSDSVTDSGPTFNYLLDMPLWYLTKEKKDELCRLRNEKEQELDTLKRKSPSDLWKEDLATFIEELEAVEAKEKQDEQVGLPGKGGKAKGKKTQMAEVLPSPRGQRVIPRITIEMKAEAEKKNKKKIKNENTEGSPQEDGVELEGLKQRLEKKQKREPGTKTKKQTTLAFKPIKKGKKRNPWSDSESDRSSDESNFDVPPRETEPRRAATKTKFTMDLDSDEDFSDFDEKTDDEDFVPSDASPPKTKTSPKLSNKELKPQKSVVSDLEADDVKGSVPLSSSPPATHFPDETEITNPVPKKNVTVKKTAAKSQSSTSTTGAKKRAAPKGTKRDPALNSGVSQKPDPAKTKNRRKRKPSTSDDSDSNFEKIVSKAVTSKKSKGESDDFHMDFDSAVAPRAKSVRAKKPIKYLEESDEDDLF
UniProt Q8NER1, sequence (whole entry, unmodified, looked up): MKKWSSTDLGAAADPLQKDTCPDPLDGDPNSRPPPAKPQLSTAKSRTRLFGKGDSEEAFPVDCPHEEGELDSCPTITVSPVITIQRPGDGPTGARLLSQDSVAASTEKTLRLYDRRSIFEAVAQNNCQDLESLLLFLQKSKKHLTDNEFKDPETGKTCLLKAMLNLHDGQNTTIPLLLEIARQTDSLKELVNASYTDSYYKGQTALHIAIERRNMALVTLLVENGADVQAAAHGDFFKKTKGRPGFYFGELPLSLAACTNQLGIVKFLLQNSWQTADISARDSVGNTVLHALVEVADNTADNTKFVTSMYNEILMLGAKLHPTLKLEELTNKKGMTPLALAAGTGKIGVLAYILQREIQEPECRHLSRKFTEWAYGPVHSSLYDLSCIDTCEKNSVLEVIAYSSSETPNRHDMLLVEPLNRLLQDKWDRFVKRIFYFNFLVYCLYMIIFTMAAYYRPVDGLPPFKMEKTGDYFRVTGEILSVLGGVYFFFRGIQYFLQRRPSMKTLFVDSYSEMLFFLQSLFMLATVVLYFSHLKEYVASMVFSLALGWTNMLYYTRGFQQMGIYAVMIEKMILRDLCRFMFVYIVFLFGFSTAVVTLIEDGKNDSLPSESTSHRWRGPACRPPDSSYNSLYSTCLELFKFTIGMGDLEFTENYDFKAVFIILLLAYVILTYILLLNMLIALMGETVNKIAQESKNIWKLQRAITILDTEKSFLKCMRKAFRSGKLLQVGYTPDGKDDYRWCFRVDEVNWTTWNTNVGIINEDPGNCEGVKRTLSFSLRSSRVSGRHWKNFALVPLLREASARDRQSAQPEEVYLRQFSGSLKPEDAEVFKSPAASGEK
UniProt Q92207, sequence (whole entry, looked up): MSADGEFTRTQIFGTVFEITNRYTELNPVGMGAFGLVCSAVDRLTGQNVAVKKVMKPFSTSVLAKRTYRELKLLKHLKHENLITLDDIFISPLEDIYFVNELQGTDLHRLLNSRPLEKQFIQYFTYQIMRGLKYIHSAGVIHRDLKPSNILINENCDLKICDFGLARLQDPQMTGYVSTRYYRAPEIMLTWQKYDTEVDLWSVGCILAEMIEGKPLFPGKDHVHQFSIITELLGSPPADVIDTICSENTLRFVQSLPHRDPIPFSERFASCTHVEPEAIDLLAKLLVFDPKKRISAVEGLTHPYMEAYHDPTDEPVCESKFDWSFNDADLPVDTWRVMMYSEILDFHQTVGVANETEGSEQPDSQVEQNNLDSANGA
UniProt Q96NY8, sequence (whole entry, looked up): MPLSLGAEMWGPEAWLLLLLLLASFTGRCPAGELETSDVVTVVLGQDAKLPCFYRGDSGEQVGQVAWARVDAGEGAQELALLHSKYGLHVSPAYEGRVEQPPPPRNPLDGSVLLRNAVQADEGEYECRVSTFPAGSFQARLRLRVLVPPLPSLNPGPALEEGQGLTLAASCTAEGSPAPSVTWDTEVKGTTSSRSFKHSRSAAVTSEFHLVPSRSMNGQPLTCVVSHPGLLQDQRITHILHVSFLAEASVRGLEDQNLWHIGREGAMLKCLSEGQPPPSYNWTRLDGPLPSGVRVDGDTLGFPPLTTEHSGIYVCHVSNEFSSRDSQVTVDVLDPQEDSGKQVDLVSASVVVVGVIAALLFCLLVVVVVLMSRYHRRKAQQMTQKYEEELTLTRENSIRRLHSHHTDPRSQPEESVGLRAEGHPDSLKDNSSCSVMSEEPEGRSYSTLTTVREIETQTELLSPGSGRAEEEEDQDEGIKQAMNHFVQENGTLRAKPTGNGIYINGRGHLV
UniProt P19440, sequence (whole entry, looked up): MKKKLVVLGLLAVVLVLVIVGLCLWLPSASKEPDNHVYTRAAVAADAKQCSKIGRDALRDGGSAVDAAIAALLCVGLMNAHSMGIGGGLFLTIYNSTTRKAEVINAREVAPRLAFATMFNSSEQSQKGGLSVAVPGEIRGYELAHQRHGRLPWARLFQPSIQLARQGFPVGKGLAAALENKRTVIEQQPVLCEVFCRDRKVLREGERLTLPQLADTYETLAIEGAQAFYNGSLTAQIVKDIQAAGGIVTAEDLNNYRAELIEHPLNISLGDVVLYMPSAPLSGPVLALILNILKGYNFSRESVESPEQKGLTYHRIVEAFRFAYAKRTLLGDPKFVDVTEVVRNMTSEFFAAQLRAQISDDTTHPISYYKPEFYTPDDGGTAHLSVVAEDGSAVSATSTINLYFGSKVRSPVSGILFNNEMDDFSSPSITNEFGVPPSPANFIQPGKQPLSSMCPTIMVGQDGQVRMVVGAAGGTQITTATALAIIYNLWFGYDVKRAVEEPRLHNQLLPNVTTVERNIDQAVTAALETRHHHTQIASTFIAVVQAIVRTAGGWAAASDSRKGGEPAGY
UniProt P41595, sequence (whole entry, looked up): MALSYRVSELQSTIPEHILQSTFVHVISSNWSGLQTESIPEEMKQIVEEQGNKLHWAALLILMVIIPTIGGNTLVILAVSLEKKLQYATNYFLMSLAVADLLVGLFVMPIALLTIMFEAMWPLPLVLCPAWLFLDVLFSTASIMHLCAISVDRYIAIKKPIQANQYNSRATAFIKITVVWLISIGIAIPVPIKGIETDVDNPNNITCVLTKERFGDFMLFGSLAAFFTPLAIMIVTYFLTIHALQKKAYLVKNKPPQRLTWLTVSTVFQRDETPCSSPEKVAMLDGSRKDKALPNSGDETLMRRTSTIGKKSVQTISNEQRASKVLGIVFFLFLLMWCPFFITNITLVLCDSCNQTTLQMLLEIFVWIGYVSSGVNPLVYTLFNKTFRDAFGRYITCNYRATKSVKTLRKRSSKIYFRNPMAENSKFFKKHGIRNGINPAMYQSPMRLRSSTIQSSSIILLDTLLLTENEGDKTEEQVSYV
UniProt Q07011, sequence (whole entry, looked up): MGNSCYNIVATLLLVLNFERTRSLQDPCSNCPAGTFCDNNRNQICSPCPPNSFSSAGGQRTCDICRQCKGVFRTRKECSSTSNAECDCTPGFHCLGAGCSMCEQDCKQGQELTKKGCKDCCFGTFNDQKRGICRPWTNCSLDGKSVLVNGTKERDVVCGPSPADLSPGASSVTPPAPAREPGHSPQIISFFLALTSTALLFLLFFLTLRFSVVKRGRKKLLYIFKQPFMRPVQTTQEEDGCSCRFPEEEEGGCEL

Cc1cccc(/C=C/C(=O)Nc2cccc(-c3ccnc(N4CCC(O)CC4)c3)c2)c1 — binding response (Nuclear receptor subfamily 4 group A member 1 (NR4A1, Homo sapiens, UniProt P22736); SPR; 10.0 µM): 89.8 RU
COc1cc(CNC(=O)CCCC/C=C/C(C)C)ccc1O — Hill coefficient (TRPV1 (Homo sapiens, UniProt Q8NER1, Y495Q); agonist, outside-out patch clamp; Y495Q mutant): 1.1
N#Cc1ccc2c(-c3ccncc3)c(-c3ccc(F)cc3)nn2c1 — log2 fold change (Mitogen-activated protein kinase HOG1 (HOG1, Candida albicans, UniProt Q92207); MIB/MS competition binding; Candida albicans cell lysate; 1 µM; baseline: DMSO, lower = stronger binding): -0.671
CCCC[C@@H]1NC(=O)[C@H](Cc2ccc(O)cc2)NC(=O)[C@@H]2CCCN2C(=O)[C@H](CC(=O)O)NC(=O)[C@H](C)NC(=O)[C@H](Cc2ccccc2)NC(=O)[C@@H]2CSCCC(=O)N3CN(CN(C3)C(=O)CCSC[C@@H](C(=O)N[C@@H](CNC(=O)CCc3cn(CCOCCOCCOCCN(CCOCCOCCOCCC(=O)N[C@H]4CSCCC(=O)N5CN6CN(C5)C(=O)CCSC[C@H](NC(=O)[C@@H](CC(=O)O)NC(=O)[C@H](Cc5cccc7ccccc57)NC(=O)[C@@H]5CCCN5C4=O)C(=O)N[C@@H](CCSC)C(=O)N[C@@H](CCCCNC(=N)N)C(=O)N[C@@H](CC(=O)O)C(=O)N[C@@H](Cc4c[nH]c5ccccc45)C(=O)N[C@@H](CO)C(=O)N[C@@H]([C@@H](C)O)C(=O)N4CCC[C@H]4C(=O)N4C[C@H](O)C[C@H]4C(=O)N[C@@H](Cc4c[nH]c5ccccc45)C(=O)N[C@H](C(N)=O)CSCCC6=O)CCOCCOCCOCCn4cc(CCC(=O)NC[C@H](NC(=O)[C@@H]5CSCCC(=O)N6CN7CN(C6)C(=O)CCSC[C@H](NC(=O)[C@H](Cc6ccc(O)cc6)NC(=O)[C@@H]6CCCN6C(=O)[C@@H](C)NC(=O)[C@H](CCC(=O)O)NC(=O)[C@@H]6CCCN6C(=O)[C@H](CC(C)(C)C)NC(=O)[C@@H](NC(C)=O)CSCCC7=O)C(=O)N[C@@H](Cc6ccccc6)C(=O)N[C@@H](C)C(=O)N[C@@H](CC(=O)O)C(=O)N6CCC[C@H]6C(=O)N[C@@H](Cc6ccc(O)cc6)C(=O)N[C@@H](CCCC)C(=O)N5)C(N)=O)nn4)nn3)C(N)=O)NC1=O)C(=O)CCSC[C@H](NC(C)=O)C(=O)N[C@@H](CC(C)(C)C)C(=O)N1CCC[C@H]1C(=O)N[C@@H](CCC(=O)O)C(=O)N[C@H](C)C(=O)N1CCC[C@H]1C(=O)N[C@@H](Cc1ccc(O)cc1)C(=O)N2 — Emax (Tumor necrosis factor receptor superfamily member 9/Nectin-4 (Homo sapiens, UniProt Q07011+Q96NY8); reporter gene, agonist; HT-1376 coculture with reporter cells; baseline: background): 59 fold
Nc1ncnc2c1ncn2[C@@H]1O[C@H](CO)[C@@H](O)[C@H]1O — Kd (T1, ssDNA, aptamer; ITC): 71 µM
CC[C@@H]1[C@H](F)C(=O)N[C@@H]1COc1nccc2cc(C(N)=O)c(OC)cc12 — inhibition (PRKCI (Homo sapiens, UniProt P41743); ATP probe binding, KiNativ profiling, measured: Lys2 probe site; THP-1 cell lysate; 0.01 mM): -6.4%
O=C(O)c1ccc(Nc2ncc3c(n2)-c2ccc(Cl)cc2C(c2c(F)cccc2F)=NC3)cc1 — remaining activity (MAPK1(h); kinase activity; 1 µM): 91%
[Cl-].[Na+] — reaction velocity (GUK1 (Homo sapiens, UniProt Q16774); enzyme activity, NADH-coupled; 60 mM): 0.0124 µM/s and 0.0297 µM/s and 0.0336 µM/s
COc1ccc2c(c1)C(=O)N(CCN1CCN(c3ccccc3OC)CC1)C2 — inhibition (HTR2B (Homo sapiens, UniProt P41595); radioligand binding; concentration not given, with: [3H]LSD): 93.9%
OC[C@H]1OC(O)[C@H](O)[C@@H](O)[C@@H]1O (stereo partly drawn) — V∞/Vmax ratio (b) (Hexokinase-3 (HK3, Homo sapiens, UniProt P52790, D264A/R265A); substrate inhibition; mutant D264A/R265A, partial substrate inhibition model, with: ATP 20 mM): 0.52 ± 0.01
O=c1nc(SCc2cc(F)cc(C(F)(F)F)c2)nc(SCc2ccc3sccc3c2)[nH]1 — ATP hydrolysis rate (TOP2A (Homo sapiens, UniProt P11388); ATPase activity; 1.95 µM, with: ATP 0.1 mM): 1.2 µM/min and 1.37 µM/min
COc1ccc(Cc2nnc(NS(=O)(=O)c3ccc(N)cc3)s2)cc1 — Kii (Glutathione hydrolase 1 proenzyme, without transmembrane domain (Homo sapiens, UniProt P19440); GSH hydrolysis, uncompetitive inhibitor; 37 °C, binds gamma-glutamyl enzyme, with: GSH 5-20 µM): 105 ± 14 µM

A few entries again:
COc1cc(CNC(=O)CCCC/C=C/C(C)C)ccc1O — Hill coefficient (TRPV1 (Homo sapiens, UniProt Q8NER1, Y495Q); agonist, outside-out patch clamp; Y495Q mutant): 1.1
